Published values from different studies.
Every numbered part comes from another study and shows a few of its results, in no order. Changes are numbered by the printed parent chain.

Block 1
Target: Eukaryotic initiation factor 4A-I (EIF4A1, Homo sapiens, UniProt P60842, residues 1-406, full length assumed)
Sequence of UniProt P60842 (whole entry, looked up): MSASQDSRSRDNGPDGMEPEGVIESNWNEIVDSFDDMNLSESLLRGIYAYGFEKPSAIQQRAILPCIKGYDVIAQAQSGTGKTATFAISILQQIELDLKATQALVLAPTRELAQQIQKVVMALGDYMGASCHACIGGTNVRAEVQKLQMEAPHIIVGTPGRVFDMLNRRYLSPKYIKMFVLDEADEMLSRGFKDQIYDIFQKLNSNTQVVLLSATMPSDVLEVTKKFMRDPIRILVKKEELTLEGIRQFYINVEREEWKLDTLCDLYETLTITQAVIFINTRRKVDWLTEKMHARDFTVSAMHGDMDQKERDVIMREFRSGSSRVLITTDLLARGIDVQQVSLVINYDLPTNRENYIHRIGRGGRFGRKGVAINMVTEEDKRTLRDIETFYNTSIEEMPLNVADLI
Technique: RNA Bind-n-Seq
Molecule type: RNA
Matrix: in vitro
Tested at: 90 pmol
Setting: 4-mer, random 30-nt RNA, single round
With: 3 µM iPr-DMDA-PatA, 2 mM ADP, 2 mM phosphate
Reference: input library
Direction: higher = stronger binding
Sequence	4-mer enrichment [fold]
CCGG	0.732
ACAU	1.16
UCCU	0.959
AGCU	0.966
GAGA	1.31
UAUA	1.36
UAUU	1.21
UUUG	0.985
UAGC	0.968
GAAC	1.15
UCUC	0.972
CCAC	0.997
UAGG	0.884
CCGA	1.07
UGAG	1.06
GUGU	0.858
AUGC	0.922
CGGC	0.65
UAAC	1.24
ACGU	1.01
AGCA	1.05
GCUC	0.826

Block 2
Target: ABI1, truncated, D143A, DHFR fusion (Arabidopsis thaliana)
Technique: DHFR PCA, deep sequencing
Matrix: yeast
Setting: methotrexate growth selection, single substitutions
With: (+)-ABA 17 µM
Reference: wild-type fitted maximum
Direction: higher = stronger binding
Parent: PYL1, truncated, DHFR fusion (Arabidopsis thaliana); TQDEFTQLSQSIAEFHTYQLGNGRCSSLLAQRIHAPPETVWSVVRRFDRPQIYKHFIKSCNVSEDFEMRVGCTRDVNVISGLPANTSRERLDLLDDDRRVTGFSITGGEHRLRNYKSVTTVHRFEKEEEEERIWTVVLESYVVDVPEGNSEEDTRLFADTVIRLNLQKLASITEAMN
Variant	relative binding score
V118N	52%
A175D	85%
D75E	90.1%
G71N	34.6%
A35L	-14%
F66C	70.1%
V44F	-13%
L169H	-9.42%
G108H	-1.49%
L91Y	22.1%
A30L	81%
G21I	78.1%
R24T	79.4%
E147C	70.8%
N85D	72.9%
H55K	87.4%
L8Y	64.7%
D3W	80.1%

Block 3
Target: Prothrombin, mature alpha-thrombin (F2, Homo sapiens, UniProt P00734)
Technique: aptamer microarray, sandwich
Molecule type: DNA with 2'F-ANA
Matrix: in vitro
Tested at: 200 nM
Setting: whole 15-mer aptamer, many near background
With: Cy3 exosite-II aptamer, 400 nM
Direction: higher = stronger binding
Sequence: GGTTGGTGTGGTTGG
Modification	mean fluorescence intensity [a.u.]
2'F-ANA at 4 5 8 11 12 14	45.8
2'F-ANA at 2 4 5 7 8 12 13 14 15	46.2
2'F-ANA at 3 4 7 8 10 11 15	295
2'F-ANA at 1 2 3 4 7 9 11 12 13 14	60.1
2'F-ANA at 1 4 5 6 8 10 11 13	45.9
2'F-ANA at 1 3 5 9 13 14 15	49.1
2'F-ANA at 1 7 9 12	390
2'F-ANA at 1 2 4 6 8 13 15	89.6
2'F-ANA at 1 3 8 9 11 13 14	89.4
2'F-ANA at 3 4 10 11	345
2'F-ANA at 1 3 7 8 9 10 11 14	58.8
2'F-ANA at 4 6 10 11 14	57
2'F-ANA at 1 2 3 4 5 7 9 10 11 13 14	50.4
2'F-ANA at 1 2 3 4 6 7 8 14 15	73
2'F-ANA at 1 3 4 7 10 12 14	54.3
2'F-ANA at 1 2 6 12 15	300
2'F-ANA at 4 8 9 12 15	625
2'F-ANA at 1 3 6 7 10 12 14 15	61.2

Block 4
Target: CCNE2, cyclin fold, Cln2 fusion (human)
Technique: yeast growth competition, sequencing
Matrix: yeast
Setting: strong parent motif
Reference: not given
Direction: higher = stronger binding
Parent: GMNC docking peptide (human); KNAKRNLSSEFAN
Variant	normalised enrichment score
A12N	1.51
R5S	0.435
K4G	0.248
A12W	1.16
R5W	0.576
A3R	-0.2
N6G	0.376
N2F	1.03
E10F	1.2
R5T	0.172
N6A	0.396
E10G	0.514
A3W	1.37
N6R	0.799
S8M	3.32
R5I	0.364
A3D	0.233
S9M	1.61
L7C	0.0775
N6M	0.533
K4L	0.552
A12Q	1.21
S8D	0.796
S9L	2.16
R5N	0.475

Block 5
Target: Sal-like protein 4, full length isoform B (SALL4, Homo sapiens, UniProt Q9UJQ4-2, residues 1-616)
Technique: universal PBM
Molecule type: double-stranded DNA, one strand shown
Matrix: in vitro
Tested at: not given
Setting: 8-mer, flanks averaged, mean of replicates
Direction: higher = stronger binding
Construct (chain): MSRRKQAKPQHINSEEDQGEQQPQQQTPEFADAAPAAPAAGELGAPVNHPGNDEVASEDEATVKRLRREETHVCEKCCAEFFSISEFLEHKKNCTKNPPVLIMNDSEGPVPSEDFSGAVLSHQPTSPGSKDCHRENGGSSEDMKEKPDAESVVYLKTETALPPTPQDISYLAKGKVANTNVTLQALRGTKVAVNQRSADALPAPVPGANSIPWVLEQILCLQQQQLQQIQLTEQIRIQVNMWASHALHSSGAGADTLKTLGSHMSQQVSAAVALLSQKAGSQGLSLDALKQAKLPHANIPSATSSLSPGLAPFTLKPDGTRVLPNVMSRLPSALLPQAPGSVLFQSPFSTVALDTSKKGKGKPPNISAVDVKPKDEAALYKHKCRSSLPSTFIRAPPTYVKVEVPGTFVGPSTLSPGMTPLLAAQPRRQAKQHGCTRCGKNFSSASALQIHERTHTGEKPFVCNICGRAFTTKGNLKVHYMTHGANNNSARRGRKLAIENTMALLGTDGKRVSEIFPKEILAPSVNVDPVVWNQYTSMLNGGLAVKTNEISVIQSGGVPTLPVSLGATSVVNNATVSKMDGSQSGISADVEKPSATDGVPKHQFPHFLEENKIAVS
Sequence	E-score
AATCTGTG	0.112
CGCAGCTC	-0.228
AATTGATG	0.31
CGCTTCGA	-0.274
CCGCATGC	-0.142
AGCAGTAC	0.0472
CCGGCACC	-0.214
AGCTACTC	-0.128
ACAGGCGG	-0.22
ATACGGCA	0.12
CCTCCGCG	-0.346
CCACCATA	0.0767
ATTTAGTA	0.317
TGTGCAAA	0.102
CGTGCGCA	-0.184
CAACGATA	0.258
TACTAAAA	0.233
AGTACTAT	0.111
ACATACAC	0.202
GCTATCAA	0.0728
ATACCGCA	-0.016
AAGGCACT	-0.201
ATACTCGG	0.0532
GATTGCAA	0.0747
GCTACAAC	-0.102

Block 6
Target: Histone acetyltransferase KAT6A, winged helix 1, GST fusion (KAT6A, Homo sapiens, UniProt Q92794, residues 1-85)
Technique: protein binding microarray
Molecule type: double-stranded DNA, one strand shown
Matrix: in vitro
Tested at: not given
Setting: 8-mer, flanks averaged, mean of 2 arrays, mostly near background
Reference: not given
Direction: higher = stronger binding
Residues (chain): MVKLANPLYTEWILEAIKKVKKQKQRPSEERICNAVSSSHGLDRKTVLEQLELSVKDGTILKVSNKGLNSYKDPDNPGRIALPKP
Sequence	E-score
ACGGGTTA	0.347
AGCAGCCA	-0.222
CACTTAAG	0.0258
AGCGGAGC	0.211
GCAACATA	-0.097
CTGCCTGC	-0.158
GAAGGGGC	-0.0773
AGAGCAGC	-0.0154
AGCTTACA	-0.0151
ATCTACGG	0.32
AGGGGGAT	-0.134
CCCGTGAC	0.336
GATCGAGC	0.0363
CCAATGTA	-0.128
CGACTTCC	0.0439
ATGTCCCA	-0.125

Block 7
Target: RNA binding protein fox-1 homolog 2, RRM domain, GST-SBP tag (RBFOX2, Homo sapiens, UniProt O43251-10, residues 100-194)
Technique: RNA Bind-n-Seq
Molecule type: RNA
Matrix: in vitro
Tested at: 365 nM
Setting: natural RNA segment, single round, ends assumed
Reference: no-protein control
Direction: higher = stronger binding
Shared flanks, not repeated: GGGAGUUCUACAGUCCGACGAUC … UGGAAUUCUCGGGUGCCAA
Construct (chain): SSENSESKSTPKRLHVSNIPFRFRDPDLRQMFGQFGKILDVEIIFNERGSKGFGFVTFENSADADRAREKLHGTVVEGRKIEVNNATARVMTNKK
Sequence	RBNS enrichment (R)
AGUUUACUGCAAGACAGCUGCGCUGUCAAGACUGAGCUGGCUUCAGGCUGUGUCCGAGCUGUGUCACAUGCAGCUCUACCCACGCUUUUAAACUCAGGAAUGCACACCUA	0.269
GCAGUGCUGCCAGCUUUUCAAGGGUCCUGACUCUGUCAGACACUUUCUGGAUUCAGCCACUAAGGACAUCUGUGGUACAAGGUGCACCUUUGCAAAUGUGUAUGAUGCCA	0.248
GCAGGGCCUAAUCUAGCUGAGGUCCAGAAAUACAAACCUGGAACUUCAUAUGGACCAAGUGGCCACACACUGAAAAACCCGUAUAGCGACUCAGUGAAAUAAACAAGAGC	0.314
UACCAGUGAGCUCUGUUGUACCAAGACCAGGUCUUCAGAGCAUCUGAACCACUGUGGCCUUCUCUUCUCAGCCUUCACUGUGACACGGGGGACAUUGAGUGACAAGCCUC	0.297
CCAAUCAGUCAAAGGCAGCAAGCAGACAGACGCCAGGUAUUUGAAAGGUCUUCUACACAGAGGAUAUACAACUGUAUGUCUGGGUCAGACAGUCUGUCUAUGUGUGCAUG	0.944
GAGGCGGGUGCCUUUCCACCUUAAGUUGCUUAUAGUAUUUAAGAUGCUAAAUGUUUUAAUCAAGAGAAGCACUGAUCUUAUAAUACGAGGAUAAGAGAUUUUCUCACAGG	0.503
ACAUCUAAAAACUUUGCUAGGAGACUAAGAACCUUUGGAGAGAUAGAUAUAAGUACGGUCAAAAAACAAAACUGUGGGACUUACAUUUAUUUUCUAUAGUAAUCUGUUGU	0.629
UUUCCAAAAUUUUCAUGGGGCUUGUGGCAACACGGGCCGUGAAUCUGUGUAUAAAAUUUACUGGCCUUCUUCACUUACCUGCUCUAGUAUCGUAUCGUGUGUGCGUGCGU	0.35
AAACCCCUUCCAGAUCUGAUAUGGGACUAUUAAUUUUUAUGCUGUUAAUUGGUAUUCAUUCACAAUGCAGUUGAAGGGGGAAGGCUCCACUGCAUUCUUUGGCUAAGGCC	0.483
UGAUUGGUUUGACGUGUUUGGUUCAGUGUCACGCACUGAUACAUGUUCUCUGUAAUUACAUGUCACCACACCAGGCUUUAGUGGCCAGGAGGGAUUUGACCUUGUUCCCA	0.435
UGUAGUUUUAACCAAAAAAGUGCCCUUUUUGUCACUGGAUUCUCCUAGCAUUCAUGAUUUUUUUUUCAUACAAUGAAUUAAAAUUGCUAAAAUCAUGGACUGGCUUUCUG	0.345
UUGGCCAACAAUCCUUUCUGCCCACUUCCCCUUCCCCAAUUACUAUUCCCUUUGACUUCAGCUGCCUGAAACAGCCAUGUCCAAGUUCUUCACCUCUAUCCAAAGAACUU	0.691

Repeated from above (block 5):
Sequence	E-score
AATCTGTG	0.112
ATACCGCA	-0.016
AAGGCACT	-0.201
TACTAAAA	0.233
AGCTACTC	-0.128
ACATACAC	0.202
AGCAGTAC	0.0472
GCTATCAA	0.0728
GATTGCAA	0.0747
TGTGCAAA	0.102
ATTTAGTA	0.317
ACAGGCGG	-0.22
CCGCATGC	-0.142
GCTACAAC	-0.102
AATTGATG	0.31
CGCTTCGA	-0.274
ATACGGCA	0.12
CAACGATA	0.258
CCTCCGCG	-0.346
CCACCATA	0.0767
CCGGCACC	-0.214
